# Measured values gathered from unrelated publications.
# Parts stem from different laboratories: compare values within a part only. Several values in a cell are separate wells, animals, samples, runs or records.
# Chain of UniProt P42336 (whole entry, unmodified, looked up): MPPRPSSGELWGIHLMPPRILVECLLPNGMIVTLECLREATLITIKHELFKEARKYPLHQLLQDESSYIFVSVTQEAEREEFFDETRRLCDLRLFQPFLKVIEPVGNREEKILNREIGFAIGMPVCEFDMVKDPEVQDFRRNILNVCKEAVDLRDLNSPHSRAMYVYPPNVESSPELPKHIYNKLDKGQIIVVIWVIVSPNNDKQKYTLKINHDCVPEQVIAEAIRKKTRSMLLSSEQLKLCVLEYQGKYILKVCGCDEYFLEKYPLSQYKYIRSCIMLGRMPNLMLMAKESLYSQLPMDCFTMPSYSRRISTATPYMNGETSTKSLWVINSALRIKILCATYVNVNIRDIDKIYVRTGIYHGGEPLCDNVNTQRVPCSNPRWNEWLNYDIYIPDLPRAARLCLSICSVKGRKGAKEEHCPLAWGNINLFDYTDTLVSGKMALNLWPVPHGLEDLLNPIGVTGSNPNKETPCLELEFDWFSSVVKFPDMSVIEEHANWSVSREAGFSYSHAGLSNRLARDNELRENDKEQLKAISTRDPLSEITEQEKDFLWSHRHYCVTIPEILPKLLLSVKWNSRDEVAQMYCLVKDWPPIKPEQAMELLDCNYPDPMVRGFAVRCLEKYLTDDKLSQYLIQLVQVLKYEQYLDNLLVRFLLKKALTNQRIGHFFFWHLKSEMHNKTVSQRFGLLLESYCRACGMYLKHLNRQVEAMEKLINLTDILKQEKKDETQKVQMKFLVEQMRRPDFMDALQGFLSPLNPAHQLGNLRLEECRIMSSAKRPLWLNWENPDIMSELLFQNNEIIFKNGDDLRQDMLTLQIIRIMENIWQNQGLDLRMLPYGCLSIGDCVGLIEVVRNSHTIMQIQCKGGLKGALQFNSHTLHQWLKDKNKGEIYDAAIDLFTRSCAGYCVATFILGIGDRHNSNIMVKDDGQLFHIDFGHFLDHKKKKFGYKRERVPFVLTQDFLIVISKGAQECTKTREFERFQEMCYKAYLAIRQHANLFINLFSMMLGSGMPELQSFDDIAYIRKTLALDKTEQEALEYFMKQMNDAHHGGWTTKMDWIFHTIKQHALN
# Chain of UniProt Q8TDR2 (whole entry, looked up): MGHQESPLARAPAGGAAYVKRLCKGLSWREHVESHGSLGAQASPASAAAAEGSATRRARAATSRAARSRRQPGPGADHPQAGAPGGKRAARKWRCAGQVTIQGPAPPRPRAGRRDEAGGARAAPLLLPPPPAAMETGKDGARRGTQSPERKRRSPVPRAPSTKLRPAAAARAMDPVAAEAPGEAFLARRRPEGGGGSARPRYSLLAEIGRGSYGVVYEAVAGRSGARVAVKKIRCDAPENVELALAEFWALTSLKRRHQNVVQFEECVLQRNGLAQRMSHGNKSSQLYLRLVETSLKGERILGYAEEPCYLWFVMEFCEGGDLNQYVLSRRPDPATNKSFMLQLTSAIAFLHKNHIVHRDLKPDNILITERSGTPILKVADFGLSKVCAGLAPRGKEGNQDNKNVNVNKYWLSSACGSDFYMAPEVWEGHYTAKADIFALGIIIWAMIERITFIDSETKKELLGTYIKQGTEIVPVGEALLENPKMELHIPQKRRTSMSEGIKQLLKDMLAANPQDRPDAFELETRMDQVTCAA
# Chain of UniProt P31152 (whole entry, looked up): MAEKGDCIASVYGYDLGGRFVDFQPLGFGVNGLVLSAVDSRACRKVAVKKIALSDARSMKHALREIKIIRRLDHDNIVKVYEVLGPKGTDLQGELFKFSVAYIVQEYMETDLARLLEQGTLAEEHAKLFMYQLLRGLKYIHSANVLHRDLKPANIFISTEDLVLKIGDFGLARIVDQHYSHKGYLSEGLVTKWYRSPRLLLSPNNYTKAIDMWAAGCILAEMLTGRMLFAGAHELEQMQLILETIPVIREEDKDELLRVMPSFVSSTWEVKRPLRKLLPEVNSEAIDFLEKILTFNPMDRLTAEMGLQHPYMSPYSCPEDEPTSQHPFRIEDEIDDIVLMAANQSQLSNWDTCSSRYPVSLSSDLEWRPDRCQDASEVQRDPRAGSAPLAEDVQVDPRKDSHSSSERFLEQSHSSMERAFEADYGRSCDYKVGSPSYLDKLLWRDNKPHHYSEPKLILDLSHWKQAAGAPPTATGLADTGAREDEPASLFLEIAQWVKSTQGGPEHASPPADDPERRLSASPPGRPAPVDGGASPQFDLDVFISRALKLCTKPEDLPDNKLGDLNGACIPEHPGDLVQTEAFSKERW
# Chain of UniProt P07333 (whole entry, looked up): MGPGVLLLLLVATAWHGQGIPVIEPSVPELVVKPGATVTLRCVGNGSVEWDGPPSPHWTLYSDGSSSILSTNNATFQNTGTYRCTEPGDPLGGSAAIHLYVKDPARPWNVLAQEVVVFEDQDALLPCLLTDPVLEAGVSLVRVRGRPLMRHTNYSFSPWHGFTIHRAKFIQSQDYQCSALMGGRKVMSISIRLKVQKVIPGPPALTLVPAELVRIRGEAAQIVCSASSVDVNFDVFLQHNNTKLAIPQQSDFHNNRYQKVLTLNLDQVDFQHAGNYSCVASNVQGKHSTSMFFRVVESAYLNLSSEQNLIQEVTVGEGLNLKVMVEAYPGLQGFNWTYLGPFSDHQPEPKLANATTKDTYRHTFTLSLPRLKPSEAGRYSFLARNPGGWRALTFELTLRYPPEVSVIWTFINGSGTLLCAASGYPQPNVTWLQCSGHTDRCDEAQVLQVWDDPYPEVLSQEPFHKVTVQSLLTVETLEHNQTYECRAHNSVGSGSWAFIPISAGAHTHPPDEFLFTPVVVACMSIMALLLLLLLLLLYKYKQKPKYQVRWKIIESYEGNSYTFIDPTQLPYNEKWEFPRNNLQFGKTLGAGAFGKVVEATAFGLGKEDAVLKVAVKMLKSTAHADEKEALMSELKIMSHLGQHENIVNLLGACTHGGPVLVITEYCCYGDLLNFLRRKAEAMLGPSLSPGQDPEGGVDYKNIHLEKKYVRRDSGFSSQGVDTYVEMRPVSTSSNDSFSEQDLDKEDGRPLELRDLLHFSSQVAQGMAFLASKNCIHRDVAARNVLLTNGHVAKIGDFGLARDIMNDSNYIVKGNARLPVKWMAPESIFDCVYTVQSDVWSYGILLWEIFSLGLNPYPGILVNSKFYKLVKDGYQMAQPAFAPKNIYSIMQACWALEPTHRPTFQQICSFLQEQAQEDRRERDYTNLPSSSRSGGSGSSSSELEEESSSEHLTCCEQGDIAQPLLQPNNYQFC
# Chain of UniProt Q9UBF8 (whole entry, looked up): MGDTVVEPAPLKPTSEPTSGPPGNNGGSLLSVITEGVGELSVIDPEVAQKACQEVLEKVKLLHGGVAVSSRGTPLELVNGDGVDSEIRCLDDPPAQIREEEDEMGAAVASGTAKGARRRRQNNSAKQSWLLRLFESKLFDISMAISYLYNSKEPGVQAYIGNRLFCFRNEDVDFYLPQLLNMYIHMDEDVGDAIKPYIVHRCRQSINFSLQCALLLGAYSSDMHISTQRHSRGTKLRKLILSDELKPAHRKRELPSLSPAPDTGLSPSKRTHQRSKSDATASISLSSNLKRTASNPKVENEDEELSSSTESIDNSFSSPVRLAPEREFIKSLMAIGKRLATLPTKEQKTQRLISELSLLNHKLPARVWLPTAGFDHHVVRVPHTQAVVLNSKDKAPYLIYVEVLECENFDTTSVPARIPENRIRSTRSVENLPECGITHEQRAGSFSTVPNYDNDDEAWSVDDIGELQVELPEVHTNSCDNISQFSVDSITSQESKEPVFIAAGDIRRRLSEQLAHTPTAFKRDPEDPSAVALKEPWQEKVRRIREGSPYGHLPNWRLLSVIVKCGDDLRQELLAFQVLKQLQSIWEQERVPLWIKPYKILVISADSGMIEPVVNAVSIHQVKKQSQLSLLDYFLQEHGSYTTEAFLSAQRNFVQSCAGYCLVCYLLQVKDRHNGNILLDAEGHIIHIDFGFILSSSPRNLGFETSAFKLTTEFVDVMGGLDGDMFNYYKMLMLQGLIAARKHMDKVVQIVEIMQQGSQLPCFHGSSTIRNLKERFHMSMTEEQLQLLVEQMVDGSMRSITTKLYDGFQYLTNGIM
# Chain of UniProt O00141 (whole entry, looked up): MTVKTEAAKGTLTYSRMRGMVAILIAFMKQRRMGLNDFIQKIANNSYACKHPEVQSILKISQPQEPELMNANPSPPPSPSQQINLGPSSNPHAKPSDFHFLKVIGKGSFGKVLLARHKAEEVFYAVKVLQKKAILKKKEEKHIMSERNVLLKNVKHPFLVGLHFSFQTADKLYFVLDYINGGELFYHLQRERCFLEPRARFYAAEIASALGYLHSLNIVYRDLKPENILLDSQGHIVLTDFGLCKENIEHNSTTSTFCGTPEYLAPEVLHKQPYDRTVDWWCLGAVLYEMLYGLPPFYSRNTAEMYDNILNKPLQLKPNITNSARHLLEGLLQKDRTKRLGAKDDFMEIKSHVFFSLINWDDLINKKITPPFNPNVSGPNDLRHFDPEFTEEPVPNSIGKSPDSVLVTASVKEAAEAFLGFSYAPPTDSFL
# Chain of UniProt Q13882 (whole entry, looked up): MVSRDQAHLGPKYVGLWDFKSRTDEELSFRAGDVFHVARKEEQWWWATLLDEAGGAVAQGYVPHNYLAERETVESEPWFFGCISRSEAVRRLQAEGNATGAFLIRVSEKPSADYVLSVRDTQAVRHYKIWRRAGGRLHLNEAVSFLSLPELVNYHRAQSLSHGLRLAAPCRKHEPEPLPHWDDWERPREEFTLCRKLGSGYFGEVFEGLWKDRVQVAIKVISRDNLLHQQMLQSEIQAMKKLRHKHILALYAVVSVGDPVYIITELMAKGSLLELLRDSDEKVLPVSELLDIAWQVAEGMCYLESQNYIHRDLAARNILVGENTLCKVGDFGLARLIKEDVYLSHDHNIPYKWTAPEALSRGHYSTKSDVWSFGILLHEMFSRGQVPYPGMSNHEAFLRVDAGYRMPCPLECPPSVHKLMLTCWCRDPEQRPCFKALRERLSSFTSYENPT

# Set 1
# Cell line: A-375
# Concentration: 100 µM
# Time: 18 h
Compound,viability
CC(=O)OCC(=O)[C@@]1(O)CC[C@H]2[C@@H]3CCC4=CC(=O)CC[C@]4(C)[C@H]3C(=O)C[C@@]21C,105%
CC(C)c1nc(N(C)S(C)(=O)=O)nc(-c2ccc(F)cc2)c1/C=C/[C@@H](O)C[C@@H](O)CC(=O)O,105% and 102%
CO/N=C(\C(=O)N[C@@H]1C(=O)N2C(C(=O)O)=C(COC(C)=O)CS[C@H]12)c1csc(N)n1,104%
CC(C)OC(=O)CCC/C=C\C[C@@H]1[C@@H](CC[C@@H](O)CCc2ccccc2)[C@H](O)C[C@@H]1O,8.41%
C[C@]12CCC(=O)C=C1CC[C@@H]1[C@@H]2C(=O)C[C@@]2(C)[C@H]1CC[C@]2(O)C(=O)CO,91.3%
O=C(O)c1ccccc1Nc1cccc(C(F)(F)F)c1,91.5%
Oc1ccc(OCc2ccccc2)cc1,65.7%
CO/N=C(\C(=O)N[C@@H]1C(=O)N2C(C(=O)O)=C(CSC(=O)c3ccco3)CS[C@H]12)c1csc(N)n1,97.5%
O=C(c1ccc(OCCN2CCCCC2)cc1)c1c(-c2ccc(O)cc2)sc2cc(O)ccc12,9.1%
O=C1c2c(O)cccc2C([C@@H]2O[C@H](CO)[C@@H](O)[C@H](O)[C@H]2O)c2cc(CO)cc(O)c21 (stereo partly shown),100%
CCc1cccc2c3c([nH]c12)C(CC)(CC(=O)O)OCC3 (stereo not shown),91.2%
CNC[C@H](O)c1cccc(O)c1,101%
COC(c1ccccc1)(c1ccccc1)[C@H](Oc1nc(C)cc(C)n1)C(=O)O,106%
Cc1[nH]cnc1CN1CCc2c(c3ccccc3n2C)C1=O,91.5%
N[C@@H](Cc1cc(I)c(Oc2cc(I)c(O)c(I)c2)c(I)c1)C(=O)O,75%
COc1cc([C@H]2Oc3cc([C@H]4Oc5cc(O)cc(O)c5C(=O)[C@@H]4O)ccc3O[C@@H]2CO)ccc1O,91.7%
Cc1ccc(=O)n(-c2ccccc2)c1,101%
C=CC(=O)N1CCC[C@@H](n2nc(-c3ccc(Oc4ccccc4)cc3)c3c(N)ncnc32)C1,7.96%
CC(=O)N[C@@H](CS)C(=O)O,89%

# Set 2
# Structure (SMILES): C[C@@H]1CN(c2cc(-c3nn(C)c4ccc(OC5(C)CC5)cc34)ncn2)C[C@H](C)O1
# Observed: cell-free assay
# Technique: competition with immobilised ligand
# Concentration: 1 µM
target,remaining binding
"PI4KB (Homo sapiens, UniProt Q9UBF8)",89%
"CHEK1 (Homo sapiens, UniProt O14757)",57%
"SYK (Homo sapiens, UniProt P43405)",89%
"PTK6 (Homo sapiens, UniProt Q13882)",92%
"MAPK4 (Homo sapiens, UniProt P31152)",93%
"CSF1R (Homo sapiens, UniProt P07333)",100%
"LATS1 (Homo sapiens, UniProt O95835)",100%
"STK35 (Homo sapiens, UniProt Q8TDR2)",100%
"EGFR (Homo sapiens, UniProt P00533, G719C)",76%
"PIK3CA (Homo sapiens, UniProt P42336, H1047L)",83%
"SGK1 (Homo sapiens, UniProt O00141)",47%
"ALK (Homo sapiens, UniProt Q9UM73)",64%
"Ribosomal protein S6 kinase alpha-5, C-terminal kinase domain (RPS6KA5, Homo sapiens, UniProt O75582)",79%
"EPHB6 (Homo sapiens, UniProt O15197)",100%

# Set 3
# Cell line: Huh-7
# Concentration: 10 µM
# Time: 24 h
Compound,viability
NC[C@H]1O[C@H](O[C@H]2[C@H](O)[C@@H](O[C@H]3O[C@H](CO)[C@@H](O)[C@H](N)[C@H]3O)[C@H](N)C[C@@H]2N)[C@H](N)[C@@H](O)[C@@H]1O,97.5%
CC(=O)Nc1ccc(O)cc1,98.6%
COc1ccc(C2C(=O)c3ccccc3C2=O)cc1,100%
CC(C)CCCC(C)N (stereo not shown),98%
CC(=O)OCC(=O)[C@@]12OC(C)(C)O[C@@H]1C[C@H]1[C@@H]3C[C@H](F)C4=CC(=O)C=C[C@]4(C)[C@@]3(F)[C@@H](O)C[C@@]12C,98.6%
Cc1c2oc3c(C)ccc(C(=O)N[C@@H]4C(=O)N[C@H](C(C)C)C(=O)N5CCC[C@H]5C(=O)N(C)CC(=O)N(C)[C@@H](C(C)C)C(=O)O[C@@H]4C)c3nc-2c(C(=O)N[C@@H]2C(=O)N[C@H](C(C)C)C(=O)N3CCC[C@H]3C(=O)N(C)CC(=O)N(C)[C@@H](C(C)C)C(=O)O[C@@H]2C)c(N)c1=O,32.9%
CC(=O)OCC(COC(C)=O)OC(C)=O,98%
Cc1ccc(-c2cc(C(F)(F)F)nn2-c2ccc(S(N)(=O)=O)cc2)cc1,93.6%
O=C(Nc1ccc([N+](=O)[O-])cc1Cl)c1cc(Cl)ccc1O,54.9%

# Set 4
# Target: MAP kinase-activated protein kinase 5 (MAPKAPK5, Homo sapiens, UniProt Q8IW41)
# Observed: enzyme activity
# Mode: inhibitor
# Concentration: 0.5 µM
# Relative to: control
# Target sequence (Q8IW41 1-473): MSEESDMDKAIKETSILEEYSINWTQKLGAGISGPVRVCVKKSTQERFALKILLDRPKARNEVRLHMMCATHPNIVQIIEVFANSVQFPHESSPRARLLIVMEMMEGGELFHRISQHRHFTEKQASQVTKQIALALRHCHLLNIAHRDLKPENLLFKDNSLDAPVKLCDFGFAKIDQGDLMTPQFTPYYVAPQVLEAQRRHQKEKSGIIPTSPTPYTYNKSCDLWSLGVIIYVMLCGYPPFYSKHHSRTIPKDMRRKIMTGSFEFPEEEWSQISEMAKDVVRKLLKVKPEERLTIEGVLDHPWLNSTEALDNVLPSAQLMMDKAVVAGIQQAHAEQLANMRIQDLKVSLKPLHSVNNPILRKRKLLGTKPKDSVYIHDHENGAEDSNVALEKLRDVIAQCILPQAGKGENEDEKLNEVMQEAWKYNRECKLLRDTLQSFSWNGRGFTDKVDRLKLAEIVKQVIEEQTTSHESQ
Structure (SMILES),remaining activity [%]
C[S+]([O-])c1ccc(-c2nc(-c3ccncc3)c(-c3ccc(F)cc3)[nH]2)cc1 (stereo not shown),92.5
Cc1ccc(NC(=O)c2ccc(CN3CCN(C)CC3)cc2)cc1Nc1nccc(-c2cccnc2)n1,90.8
COc1cc2ncnc(N3CCN(C(=O)Nc4ccc(Oc5ccccc5)cc4)CC3)c2cc1OC,118
CN(C)CCCn1cc(C2=C(c3c[nH]c4ccccc34)C(=O)NC2=O)c2ccccc21,93.7
CCOc1cc2ncnc(Nc3cccc(Br)c3)c2cc1OCC,71.6
COc1cc2ncc(-c3ccccc3)nc2cc1OC,88.1
CC(=O)O/N=C1/C(c2c(O)[nH]c3cc(Br)ccc23)=Nc2ccccc21,94.9
CC(C)[C@H](CO)Nc1nc(Nc2cccc(Cl)c2)c2ncn(C(C)C)c2n1,97.6
O=C(Nc1ccc(Cl)cc1)c1ccccc1NCc1ccncc1,88.7
CS(=O)(=O)CCNCc1ccc(-c2ccc3ncnc(Nc4ccc(OCc5cccc(F)c5)c(Cl)c4)c3c2)o1,92.8
COc1ccc(-c2cnc3c(-c4ccsc4)cnn3c2)cc1,90.7
COc1cc2ncnc(Nc3ccc(OCc4ccccc4)cc3)c2cc1OC,100
Cn1cnc2cc3c(Nc4cccc(Br)c4)ncnc3cc21,130
Nc1[nH]nc2nnc(-c3c(-c4ccccc4)nn4ccccc34)cc12,97.7
Cc1nc(Nc2ncc(C(=O)Nc3c(C)cccc3Cl)s2)cc(N2CCN(CCO)CC2)n1,94.9
O=c1cc(N2CCOCC2)oc2c1ccc1ccccc12,98.4
CCN1/C(=C/C(C)=O)Sc2ccc(OC)cc21,112
CCC(=O)Nc1ccc2ncnc(Nc3cccc(Br)c3)c2c1,105
Cn1cc(/C=C2\C(=O)Nc3ccc(S(N)(=O)=O)cc32)c2ccccc21,88.3

# Excerpt of the above (set 1):
Compound,viability
COC(c1ccccc1)(c1ccccc1)[C@H](Oc1nc(C)cc(C)n1)C(=O)O,106%
Cc1[nH]cnc1CN1CCc2c(c3ccccc3n2C)C1=O,91.5%
N[C@@H](Cc1cc(I)c(Oc2cc(I)c(O)c(I)c2)c(I)c1)C(=O)O,75%
COc1cc([C@H]2Oc3cc([C@H]4Oc5cc(O)cc(O)c5C(=O)[C@@H]4O)ccc3O[C@@H]2CO)ccc1O,91.7%
Cc1ccc(=O)n(-c2ccccc2)c1,101%
C=CC(=O)N1CCC[C@@H](n2nc(-c3ccc(Oc4ccccc4)cc3)c3c(N)ncnc32)C1,7.96%
CC(=O)N[C@@H](CS)C(=O)O,89%
